Published values pooled from the literature.
Protocols differ between the studies behind these lines. ± marks the error that the study gave.

CN(C)c1ccc2cc(C(=O)NS(=O)(=O)c3ccccc3-c3ccccc3)oc2c1
onset of H3K23ac decline (ZR-75-1; Western blot; 1 µM): ≤ 10 min

CC1=CC(=O)c2ccccc2C1=O
selectivity index (MOLT-3; XTT; baseline: IC50 MRC-5 over IC50 MOLT-3): 2.18

O=c1[nH]cc(F)c(=O)[nH]1
selectivity ratio (C32; SRB; baseline: IC50 HaCaT over IC50 C32): 0.08

Cc1cc(OCc2nnc(SC3CCCC3)n2-c2cccnc2)ccc1-c1ccc(S(C)(=O)=O)cc1
inhibition (BT-16; cell viability, MTT; 10 µM, 72 h): 93.8%

CCn1cc(-c2cc(Cn3ccoc3=N)cc3c2CCN([C@@H](C)c2cc(OC)ccn2)C3=O)c(C(F)(F)F)n1
EC50 (SNU668; cell growth, inhibitor; 120 h): 0.14 µM

C=Cc1c2[n-]c(c1C)/C=c1\[n-]/c(c(C)c1C=C)=C\c1[n-]c(c(CCC(=O)O)c1C)/C=c1\[n-]c(c(C)c1CCC(=O)O)=C2.[Sn+4]
fold change (SH-SY5Y; RNA-seq, measured: CREB5 mRNA; 5 µM, 5 h; baseline: untreated cells): 1.72

C=C1CN(S(=O)(=O)c2ccc(C)cc2)CCCN(Cc2ccccc2)CCCN(S(=O)(=O)c2ccc(C)cc2)C1
HA-FLuc protein level (HEK293 expressing HA-FLuc; western blot; total extract; concentration not given, unit not given; baseline: mock): 0.325

Cc1cc(Nc2ncc(Cl)c(Nc3ccccc3S(=O)(=O)C(C)C)n2)c(OC(C)C)cc1C1CCNCC1
inhibition (BT-16; cell viability, MTT; 10 µM, 72 h): 93.3%

CCOc1cc(-c2nncn2C)ccc1Nc1ncc2cc(C)nc(N3CC(C)(C)C3)c2n1
GI50 (CAL-51; cell growth; 72 h): 0.049 µM

CC/C(=N\NC(=O)NCc1cccc(O)c1)c1ccc(O)c(C)c1O
protein level (SK-OV-3; Western blot, measured: phospho-YAP; 10 µM, 6 h, 2D culture, unit not given; baseline: total YAP): 0.27 ± 0.03

Nc1cccc2c1CN(C1CCC(=O)NC1=O)C2=O (centres unmarked)
viability (bone marrow CD138+ myeloma cells; XTT; 0.6 µM, phenol red-free RPMI): 114%

CC(C)NCC(O)c1ccc(O)c(O)c1 (centres unmarked)
sarcomere length (mouse ventricular cardiomyocytes; dose not given, 0.403 s): 1.8 µm

Cc1cc(NS(=O)(=O)c2ccc(NC(=O)/C(C#N)=C/c3ccc(N4CCCCC4)cc3)cc2)no1
S phase cells (HCT-116; propidium iodide flow cytometry; IC50, 48 h): 24.9%

CN(C)c1ccc(C(=C2C=CC(=[N+](C)C)C=C2)c2ccc(N(C)C)cc2)cc1
inhibition (BT-16; cell viability, MTT; 10 µM, 72 h): 92.9%

Cn1cc(-c2ccc(-c3cncc(Cl)c3N3CCC4(CCNC4=O)CC3)cc2)cn1
log2 fold change (COLO 205; gene expression, microarray, measured: RPL37 mRNA; concentration not given, 6 h; baseline: untreated cells): 1.88

CC1(C)Oc2ccc(CC3=C(c4ccc(O)cc4)C(=O)NC3=O)cc2C[C@@H]1O
nitric oxide production decrease (RPTEC; Griess; 10 µg/mL, 24 h, with: LPS 1 µg/mL; baseline: LPS-treated cells): ~18%

COc1cc([C@@H]2c3cc4c(cc3[C@@H](O[C@@H]3O[C@@H]5CO[C@@H](C)O[C@H]5[C@H](O)[C@H]3O)[C@H]3COC(=O)[C@H]23)OCO4)cc(OC)c1O
G2 phase cells (HepG2 spheroids; flow cytometry; 1.7 µM, 24 h): 61.1 ± 18.3%

COc1ccc(F)cc1C(=O)NCc1ccc(-c2nn([C@@H](C)C(F)(F)F)c(N)c2C(N)=O)cc1
IC50 (Rec1; measured: FGF-2; 24 h): > 0.1 µM

CCn1cc(-c2cc(Cn3ccnc3)cc3c2CCN([C@H](c2cc(OC)ccn2)C2CC2)C3=O)c(C(F)(F)F)n1
EC50 (SNU668; cell growth, inhibitor; 120 h): 8 µM

CN1CCN(c2ccc(C(=O)Nc3n[nH]c4ccc(Cc5cc(F)cc(F)c5)cc34)c(NC3CCOCC3)c2)CC1
inhibition (BT-16; cell viability, MTT; 10 µM, 72 h): 86.3%
